Measured values from different studies.
Numbered parts are unrelated; each lists some results of a single study.

Series 1
Target: Sal-like protein 4, full length isoform B (SALL4, Homo sapiens, UniProt Q9UJQ4-2, residues 1-616)
Technique: universal PBM
Molecule type: double-stranded DNA, one strand shown
Sample: in vitro
Tested at: not given
Setting: 8-mer, flanks averaged, mean of replicates
Reading: higher = stronger binding
Strand	E-score
GATTTTAA	0.206
GTTTCCCA	-0.0407
CTAAACCA	0.0783
CATGGACA	-0.0647
CCAAGTGC	-0.102
CGATTGGA	-0.113
AAGCTAGC	-0.0179
TTAAAGAA	0.27
CCGCCCGA	-0.262
GCTACACA	0.1
CCCGACTA	-0.198
CAGTTTTA	0.121
ACAAGCTA	0.0684
CGCAGAAC	-0.0447
AATGTTGA	0.202
CTGTTTCA	0.0883
CTTAGCCA	0.0468
GTAAGCGA	0.0246
GCGAGTCC	-0.155
CCTAACCC	-0.255
ACGTGATA	0.136
ACTTACGC	0.1
GGAGCCCC	-0.413
CACCCCAC	-0.0921
GTGCATAA	0.239

Series 2
Target: Interferon regulatory factor 7, full length, phosphomimetic (IRF7, Homo sapiens, UniProt Q92985, residues 1-503, S101K/S471D/S472D/S475D/S476D/S477D/S483D/S484D/S487D)
Technique: protein-binding microarray
Molecule type: double-stranded DNA, one strand shown
Sample: in vitro
Tested at: 250 nM
Setting: 60-bp whole probe
With: salmon DNA 0.4 mg/ml
Reference: random background probes
Reading: higher = stronger binding
All sequences stand within: GCCTAGCAC … GTCTTGATTCGCTTGACGCTGCTG
Construct (chain): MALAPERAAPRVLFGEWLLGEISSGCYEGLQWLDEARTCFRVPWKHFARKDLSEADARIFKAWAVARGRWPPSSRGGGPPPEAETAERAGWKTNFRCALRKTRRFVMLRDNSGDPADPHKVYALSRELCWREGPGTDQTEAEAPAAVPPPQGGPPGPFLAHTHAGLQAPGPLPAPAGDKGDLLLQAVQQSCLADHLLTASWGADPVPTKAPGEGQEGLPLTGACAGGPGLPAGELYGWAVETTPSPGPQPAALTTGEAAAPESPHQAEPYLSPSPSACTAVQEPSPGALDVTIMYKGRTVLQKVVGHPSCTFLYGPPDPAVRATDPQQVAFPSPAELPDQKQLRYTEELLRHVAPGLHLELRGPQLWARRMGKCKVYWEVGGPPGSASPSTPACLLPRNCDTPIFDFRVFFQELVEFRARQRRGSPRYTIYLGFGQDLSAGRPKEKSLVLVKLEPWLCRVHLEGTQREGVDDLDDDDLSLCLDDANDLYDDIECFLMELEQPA
Strand	log fluorescence [z-score]
TTAGAACTTGGGACTGGATTAGTGCTA	-0.146
TTAGGTTTCCTTAACCTTTAGTGCTAG	0.662
GACGGTATCCTTTTCCTGAAGTGCTAG	0.986
TTAGGTTTCGGGTTTCGTTTAGTGCTA	12.8
TCCCCTCTAGGTTCTCTGAAGGTGCTA	-0.308
TTAGATATCAGTTTCGATTGGTGCTAG	10.2
TCATTTTTCATTATTGTACTGTGCTAG	1.46
GACCAACTGGGGACTGGAGACGTGCTA	-0.389
TTCGGTTTCCTACTGCTTTAGTGCTAG	2.41
TTAGGACTGCTTTTGCTTTAGTGCTAG	0.595
TCAGCTTTCTTTACCACACTGTGCTAG	0.374
GACGGACTGGGGTTTGGGGACGTGCTA	-0.434
CACAACCAAACAAGAAGATGGTGCTAG	-0.0566
ATATTTCCCAGAACTGGAGTGGTGCTA	2.05
GACGAACTGCGACTGGAGACGTGCTAG	-0.554
GACTATCTCAGTCTCGAGACGTGCTAG	0.981
CTAGATTTCAGTCTCGATTAGTGCTAG	2.22
GACGGACTGGGGTGTCGGGACGTGCTA	-0.735
TTATGTATCGGGTATCGGTTAGTGCTA	0.796
TTAGGTCTCGGACTGAGTTAGTGCTAG	0.215
GACGAACTGGGGTTTCGAGAGGTGCTA	0.576
GACGATCTCAGTATAGAGACGTGCTAG	-0.309
CCTGAAATCTCTTTCCTTACGTGCTAG	0.194
TTAGGTTCCGGTTTAGGTTAGTGCTAG	8.03
CTAGGACTGGACACTGGGTTAGTGCTA	-0.468

Series 3
Target: Prothrombin, mature alpha-thrombin (F2, Homo sapiens, UniProt P00734)
Technique: aptamer microarray, sandwich
Molecule type: DNA with 2'F-ANA
Sample: in vitro
Tested at: 200 nM
Setting: whole 15-mer aptamer, many near background
With: Cy3 exosite-II aptamer, 400 nM
Reading: higher = stronger binding
Strand: GGTTGGTGTGGTTGG
Modification	mean fluorescence intensity
2'F-ANA at 2 4 6 12	546 a.u.
2'F-ANA at 1 2 3 4 7 8 11 12 13 14	106 a.u.
2'F-ANA at 1 4 5 6 12 13 14	45.5 a.u.
2'F-ANA at 1 2 7 9 11 12 15	294 a.u.
2'F-ANA at 1 2 3 7 8 9 13 14 15	72.3 a.u.
2'F-ANA at 2 5 7 10 12 13 14 15	49.2 a.u.
2'F-ANA at 1 2 3 10 11 12 14	62.1 a.u.
2'F-ANA at 1 5 6 7 12 13 14	44.6 a.u.
2'F-ANA at 2 4 6 11 12 15	405 a.u.
2'F-ANA at 1 2 3 4 5 11	53.8 a.u.
2'F-ANA at 4 5 7 12 15	146 a.u.
2'F-ANA at 1 3 4 6 8 9 12 14 15	81.6 a.u.
2'F-ANA at 1 3 4 5 6 9 10 14	49.5 a.u.
2'F-ANA at 3 4 8 9 12 14 15	377 a.u.
2'F-ANA at 2 4 6 9 10 11 15	71.3 a.u.
2'F-ANA at 2 4 5 6 9 11 12 13 14	48 a.u.
2'F-ANA at 1 3 4 5 7 8 12 15	132 a.u.
2'F-ANA at 1 3 8 9 12 13	434 a.u.

Series 4
Target: RNA binding protein fox-1 homolog 2, RRM domain, GST-SBP tag (RBFOX2, Homo sapiens, UniProt O43251-10, residues 100-194)
Technique: RNA Bind-n-Seq
Molecule type: RNA
Sample: in vitro
Tested at: 365 nM
Setting: natural RNA segment, single round, ends assumed
Reference: no-protein control
Reading: higher = stronger binding
Residues (chain): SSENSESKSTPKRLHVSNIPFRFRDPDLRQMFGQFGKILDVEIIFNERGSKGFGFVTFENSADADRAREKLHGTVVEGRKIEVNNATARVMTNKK
Strand	RBNS enrichment (R)
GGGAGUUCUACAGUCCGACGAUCGUAUAUUAUAUCUUAAGUCAGUUUCCGUGGCAUCUACUGAAUAAAAAUUCAGCAGAUCUCCUUUCUAGGUGCAACUGUUCAGUGAAUUCCCUCACUAAAAGCUUAAGCAAUGGAAUUCUCGGGUGCCAA	0.36
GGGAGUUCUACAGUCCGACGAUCGGUAUGAAGUGUGCACACGCAGCCCAACAACGGGCAGUGGUCUCUGUGCUCCUAGGCAUCCAGCACAGGUUCUGGCAGGGCACCCCUGCUGGGGUUGGGGGCUGGUCUGUUGGAAUUCUCGGGUGCCAA	0.457
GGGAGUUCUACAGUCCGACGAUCCUUCAUAUCCUACUUGUUAAUAGCCGUCUUCUCCCUCUGUCAUCUACCCAGAGCAUUCAGCUUGGGACUGUCGUCCAGUGCAGGGCCCAGGUGAGAGGAGACUGCCAGCGUGGAAUUCUCGGGUGCCAA	0.427
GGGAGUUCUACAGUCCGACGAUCCCAAGAGAAACCUCAGUUUGGCAUGGUUCUUCAGGGUAGCUUCCGAGUAGAAAUAGUCUGCUGCAAAUCCUAAACUUAAGAUCCCUGCGCUAGGUUGCUAGAGACUGCGGUGGAAUUCUCGGGUGCCAA	0.601
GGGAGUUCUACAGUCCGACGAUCUAAAUAUUUGUCCUUAAAGGGUUUGAGAUGUACAUCUUUCAUUUCGUAUUUCUCAUAGGCUAUGCCAUGUGCGGAAUUCAAGUUACCAAUGUAACACUGGCCAGCGGGCCUGGAAUUCUCGGGUGCCAA	0.491
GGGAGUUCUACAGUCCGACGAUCAGCUCAGUGAGUCAUGGAACGUCAGUUAGAAAACGAAGUUAGGGUCGUUUCUGGGAAGAGAAUCAAUACCUGUUAGAGCCAGAAUGCUCCAAGUCUUUUAGCUUGUUCAUUGGAAUUCUCGGGUGCCAA	0.669
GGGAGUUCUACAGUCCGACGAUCAAACAGCUGCUCCCUCAGCUCAGAGUAGGUUCCAUAUCCUUUUUUUUUGUUUUGUUUUAAUGGCUCAUUUGUAAAAUUGUCCUAAUUUUUCCUAGCUUUCAGCCAUUAGAUGGAAUUCUCGGGUGCCAA	0.714
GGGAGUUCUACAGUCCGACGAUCGCCAAAAUGAAUGCUGACUCCUGAUACUCCGCACAAGCACACCAACUCCAAAAGUGCCUUAAAGCCAGGUUUGUGUCUCCUUUCAGGAGAGAGCGUGUAACGUCAGAUUUUGGAAUUCUCGGGUGCCAA	0.868
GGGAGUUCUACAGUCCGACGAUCGGUUGCAGCUGCCAUGCUCAGAAUGCGUUUUGAGAGCUGAAGCAAGGUGCUUGCAGUCACCUGAGGCCGUCCGUGUGGCCCAGGGCCCCAGCUGCCUUUAGGGCCCCCAUUGGAAUUCUCGGGUGCCAA	0.446
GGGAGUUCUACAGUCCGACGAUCAAGGAAUAAAUCCAGUGAAGAAUGGUUGUUGAUCAUCUAUCCAAAGUCCCAGGUUUAAAAAGCAAAGCAAAACAAAAAUAACCACGUAUUCUCUAAAGGGCUCUUGUCUGUGGAAUUCUCGGGUGCCAA	0.711
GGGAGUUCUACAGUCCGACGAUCAAGAGCAUGAACGCAUCAAUAGAAAGAACUCGGGGAAACAUCCCAUCAACAGGACUACACACUUGUAUAUACAUUCUUGAGAACACUGCAAUGUGAAAAUCACGUUUGCUUGGAAUUCUCGGGUGCCAA	23.7
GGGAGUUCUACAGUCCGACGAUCUACCCCCAUGAGGGGAUUCCCUUCCUUCUGUUGCUGGUGUACUCUAGGACUUCAAAGUGUGUCUGGGAUUUUUUUAUUAAAGAAAAAAAAUUUCUAGCUGUCCUUGCAGAUGGAAUUCUCGGGUGCCAA	0.379

Series 5
Target: Eukaryotic initiation factor 4A-I (EIF4A1, Homo sapiens, UniProt P60842, residues 1-406, full length assumed)
Chain of UniProt P60842 (whole entry, looked up): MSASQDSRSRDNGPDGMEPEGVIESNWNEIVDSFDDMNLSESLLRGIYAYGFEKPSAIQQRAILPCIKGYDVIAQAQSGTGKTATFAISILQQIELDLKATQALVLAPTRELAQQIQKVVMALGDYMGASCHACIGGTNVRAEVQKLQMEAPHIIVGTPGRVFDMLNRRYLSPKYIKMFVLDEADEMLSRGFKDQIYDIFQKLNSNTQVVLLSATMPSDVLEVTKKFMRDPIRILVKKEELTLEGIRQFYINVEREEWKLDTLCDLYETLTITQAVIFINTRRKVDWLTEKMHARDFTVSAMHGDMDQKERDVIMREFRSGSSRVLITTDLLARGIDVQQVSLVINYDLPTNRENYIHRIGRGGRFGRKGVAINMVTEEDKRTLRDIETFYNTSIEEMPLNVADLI
Technique: RNA Bind-n-Seq
Molecule type: RNA
Sample: in vitro
Tested at: 90 pmol
Setting: 4-mer, random 30-nt RNA, single round
With: 3 µM DMDA-PatA, 2 mM ADP, 2 mM phosphate
Reference: input library
Reading: higher = stronger binding
Strand	4-mer enrichment [fold]
GAGG	1.38
GCCU	0.545
UAUG	1.12
AGAU	0.909
CGUA	1.02
AAAU	1.06
AAGC	1.09
GAAG	1.23
UCUA	0.668
GCAA	1
GUCG	0.714
AUUA	0.982
CCCU	0.652
CGCA	0.806
GAAU	1.14

A few entries again (series 4):
Strand	RBNS enrichment (R)
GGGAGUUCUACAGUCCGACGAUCAAGAGCAUGAACGCAUCAAUAGAAAGAACUCGGGGAAACAUCCCAUCAACAGGACUACACACUUGUAUAUACAUUCUUGAGAACACUGCAAUGUGAAAAUCACGUUUGCUUGGAAUUCUCGGGUGCCAA	23.7
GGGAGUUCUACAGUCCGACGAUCGGUAUGAAGUGUGCACACGCAGCCCAACAACGGGCAGUGGUCUCUGUGCUCCUAGGCAUCCAGCACAGGUUCUGGCAGGGCACCCCUGCUGGGGUUGGGGGCUGGUCUGUUGGAAUUCUCGGGUGCCAA	0.457
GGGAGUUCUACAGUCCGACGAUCGGUUGCAGCUGCCAUGCUCAGAAUGCGUUUUGAGAGCUGAAGCAAGGUGCUUGCAGUCACCUGAGGCCGUCCGUGUGGCCCAGGGCCCCAGCUGCCUUUAGGGCCCCCAUUGGAAUUCUCGGGUGCCAA	0.446
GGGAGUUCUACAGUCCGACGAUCCUUCAUAUCCUACUUGUUAAUAGCCGUCUUCUCCCUCUGUCAUCUACCCAGAGCAUUCAGCUUGGGACUGUCGUCCAGUGCAGGGCCCAGGUGAGAGGAGACUGCCAGCGUGGAAUUCUCGGGUGCCAA	0.427
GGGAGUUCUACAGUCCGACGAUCAGCUCAGUGAGUCAUGGAACGUCAGUUAGAAAACGAAGUUAGGGUCGUUUCUGGGAAGAGAAUCAAUACCUGUUAGAGCCAGAAUGCUCCAAGUCUUUUAGCUUGUUCAUUGGAAUUCUCGGGUGCCAA	0.669
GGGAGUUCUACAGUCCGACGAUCUAAAUAUUUGUCCUUAAAGGGUUUGAGAUGUACAUCUUUCAUUUCGUAUUUCUCAUAGGCUAUGCCAUGUGCGGAAUUCAAGUUACCAAUGUAACACUGGCCAGCGGGCCUGGAAUUCUCGGGUGCCAA	0.491
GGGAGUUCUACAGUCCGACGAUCAAACAGCUGCUCCCUCAGCUCAGAGUAGGUUCCAUAUCCUUUUUUUUUGUUUUGUUUUAAUGGCUCAUUUGUAAAAUUGUCCUAAUUUUUCCUAGCUUUCAGCCAUUAGAUGGAAUUCUCGGGUGCCAA	0.714
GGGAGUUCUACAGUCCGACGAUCCCAAGAGAAACCUCAGUUUGGCAUGGUUCUUCAGGGUAGCUUCCGAGUAGAAAUAGUCUGCUGCAAAUCCUAAACUUAAGAUCCCUGCGCUAGGUUGCUAGAGACUGCGGUGGAAUUCUCGGGUGCCAA	0.601
